Measured values pooled from the literature.
Parts stem from different laboratories: compare values within a part only.

Block 1 — method: DNA-protein interaction ELISA; form: double-stranded DNA, one strand shown; matrix: in vitro, bacterial lysate; concentration: not given; setting: whole dsDNA probe, crude lysate protein; relative to: highest signal in screen; reading: higher = stronger binding
Target: Probable WRKY transcription factor 33, C-terminal DNA-binding domain (WRKY33, Arabidopsis thaliana, UniProt Q8S8P5, residues 346-449)
Residues (chain): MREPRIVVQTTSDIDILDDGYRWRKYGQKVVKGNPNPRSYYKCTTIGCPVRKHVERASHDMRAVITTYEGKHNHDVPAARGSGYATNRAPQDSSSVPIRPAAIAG
| Sequence | relative absorbance |
| --- | --- |
| AAAAAAATTTTTAGTTTTAATTTTGGAAAA | 34.4 % of maximum |
| AAAAAATGAATCAATTTTTGGGCTTTAAAA | 34.5 % of maximum |
| AAAAAAACCCGTGCCTGCCTATTGCAAAAA | 33.8 % of maximum |
| AAAAAAATCGTTGTTATCGTATTTATAAAA | 35.6 % of maximum |
| AAAAAAGGGTCGCTGTGAGCTCATGAAAAA | 36.9 % of maximum |
| AAAAAATAGGCGTTATGGCTAACACCAAAA | 30.5 % of maximum |
| AAAAAAACTCACGGCGTCACTATGGTAAAA | 35.6 % of maximum |
| AAAAAAAAATCGAATTTGGACTTCCGAAAA | 54.6 % of maximum |

Block 2 — method: RNA Bind-n-Seq; form: RNA; matrix: in vitro; concentration: not given; relative to: input RNA pool; reading: higher = stronger binding
Target: RING finger protein unkempt homolog, zinc fingers 1-6, GST-SBP tag (UNK, Homo sapiens, UniProt Q9C0B0, residues 30-357)
UniProt Q9C0B0, sequence (30-357, looked up): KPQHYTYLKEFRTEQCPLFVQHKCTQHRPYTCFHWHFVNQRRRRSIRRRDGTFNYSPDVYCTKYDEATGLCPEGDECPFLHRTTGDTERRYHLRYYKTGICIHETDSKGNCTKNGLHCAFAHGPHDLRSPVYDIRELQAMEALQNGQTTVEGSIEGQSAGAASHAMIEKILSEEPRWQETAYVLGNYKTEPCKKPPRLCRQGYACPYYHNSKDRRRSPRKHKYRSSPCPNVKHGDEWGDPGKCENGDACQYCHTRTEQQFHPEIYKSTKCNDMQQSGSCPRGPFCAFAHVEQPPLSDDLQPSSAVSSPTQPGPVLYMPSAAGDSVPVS
Setting: RNA with constant flanks, human and mouse sites, ends assumed
| Sequence | bound/input enrichment [ratio] |
| --- | --- |
| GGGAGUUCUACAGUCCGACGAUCUCUGACAUUUCUACGCUUGGACACCUGGUAGUAACCACUCAGGGAGGAUACGUGAAAGUAUUAGACCUUUCAAACUUCGAAAUUUUGGCCAAAGUGGAGCCUCCCAAAAAGGAGGGCACUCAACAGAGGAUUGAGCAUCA | 0.31 |
| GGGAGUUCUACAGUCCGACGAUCUUUGAUUUCUUUUUCUUUUUUUCUCUUCUUGUUUUUGUUUUUCUUUUUUGUUUGUUUUUUUAGCAUGCAAAUAUGUUGGUACGUUAUGUCCUGGUUUAAAAGGAUUAAAAAUUUAAAAGUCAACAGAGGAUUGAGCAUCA | 1.37 |
| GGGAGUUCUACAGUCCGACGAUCGAUUACACGUGGAACUUACUGAAAGCAGGGAAAAUUCCAGAGGAAUUUAAUGUAUUUAAUUUAAUACAAGAAAUGAGAACACAGAGGCACUCGGCAGUACAAACAAAGGAGCAGUAUGAACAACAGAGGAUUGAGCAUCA | 0.413 |
| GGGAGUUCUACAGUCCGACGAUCAAUGUAGCUUUGACUUUCUGGAGAAAGAGAAGUAUAAGUGAACUUGUAGCUUAUUUAGUGAGGAUAGAAGACCUUGGAGUUGUGGUAGAUUGCCUUCCUGUUCUAACCAAUAGUUUACAGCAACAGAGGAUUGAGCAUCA | 1.27 |
| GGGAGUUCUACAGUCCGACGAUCGUCUAUGGCCAGCGGGUCCCAUAAAGUUCAGUCUGAUUUCAUCUAUUUUCGGAAGGGUCCCUUCUUUGGCCUGGCCUGCUUUGCCAACAUGCCUGUGGAGAGCGAGCUGGAGCGAGGCGCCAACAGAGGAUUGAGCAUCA | 0.169 |
| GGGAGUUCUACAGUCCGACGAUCUAGCCUGAGUAUACAAUCAAGCUUCAGUGUGCAACCUUUUUUUCUUUUGCCAUUUUCUAUUUUAGUAAUUUCCUUGGGGAACUAAAUAAUUUUGCAGAAUUUUUCCUAAUUUUGUUUAUCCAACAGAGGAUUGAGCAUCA | 2.11 |
| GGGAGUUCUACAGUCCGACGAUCUGCGUUUUGUGUAGAGAAUAAGGAACGUGGAUCUUUUUAUUUUGCAAUCCUGGGCCAGCUAGAUACCGGGAGCUAAUUGACCUUUUAACCUUUUCAGUGGCCACCUUUUGGUUAUCAAUGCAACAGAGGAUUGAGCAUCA | 0.331 |
| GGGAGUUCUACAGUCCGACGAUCUCUCUGGAAGCUAUGGGCAGAGCUCAGUUCAUAGUUGUUGGGAAAUAAGUGCUUCAUUUUUAGUUGUUCUGAGUUGAUCCGCACCACUGCACCACAACUCAAUAUGAAAAACUAUUUAACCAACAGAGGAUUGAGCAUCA | 0.262 |

Single results of other studies
| Molecule | tested on | assay | system | conditions | quantity | value |
| --- | --- | --- | --- | --- | --- | --- |
| TRIP12 (Homo sapiens, UniProt Q14669) | IMMT (Homo sapiens, UniProt Q16891) | cross-linking MS | cell fractions | together with: DSSO | cross-linked residues | Y918 to K211 |
| Cc1noc(-c2cccn2Cc2ccc(F)cc2Cl)n1 | – | – | human, microsomes or S9 | 2 µM, 0.5 h | remaining compound | 60.6% |
| NAA10 (Homo sapiens, UniProt P41227) | NAA15 (Homo sapiens, UniProt Q9BXJ9) | cross-linking MS | cell fractions | together with: DSSO | cross-linked residues | K165 to K286 |
| Histone H2B type 1-C/E/F/G/I (Homo sapiens, UniProt P62807) | H2AC6 (Homo sapiens, UniProt Q93077) | cross-linking MS | – | hits only | interaction screen | cross-linked |
